Assay results from different studies.
Numbered parts are unrelated; each lists some results of a single study.

Set 1 — method: competition protein-binding microarray; molecule type: double-stranded DNA, one strand shown; matrix: in vitro; concentration: 2 µM; with: Pho4 competitor, 0.05 µM; direction: higher = stronger binding; quantity: fluorescence intensity; constant ends, left off below: … GTCTTGATTCGCTTGACGCTGCTG
Target: Centromere-binding protein 1, full length, His-tagged (CBF1, Saccharomyces cerevisiae, UniProt P17106, residues 1-351)
Chain of UniProt P17106 (whole entry, looked up): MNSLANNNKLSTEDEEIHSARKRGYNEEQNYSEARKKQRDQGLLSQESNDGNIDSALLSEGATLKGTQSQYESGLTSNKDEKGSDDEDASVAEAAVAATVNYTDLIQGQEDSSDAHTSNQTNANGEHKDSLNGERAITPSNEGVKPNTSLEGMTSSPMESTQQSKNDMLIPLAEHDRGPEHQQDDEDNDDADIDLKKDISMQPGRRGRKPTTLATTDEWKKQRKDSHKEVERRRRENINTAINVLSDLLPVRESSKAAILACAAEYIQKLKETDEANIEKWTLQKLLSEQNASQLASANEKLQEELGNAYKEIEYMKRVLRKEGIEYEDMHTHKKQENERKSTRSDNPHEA
Setting: whole 60-bp probe, lowest competitor level
CTTTCCCGATCTTGTCAAGTGGGTGTAGCACATTTG: 65.3 a.u.
CTTTCCCGATCTTTTCACGTGATTTTAGCACATTTG: 3210 a.u.
AAAGCGGTAATTTTTCACGTGACCTCACATATCTAT: 9190 a.u.
CTAACGAAGGTTTGCCGAGTGGGTGACAAGCCAAGT: 61.6 a.u.
TTGAACGACAAGACTCACGTGGTCGAGCTTCTACCA: 1940 a.u.

Set 2 — method: RNA Bind-n-Seq; molecule type: RNA; matrix: in vitro; concentration: 365 nM; baseline: no-protein control; direction: higher = stronger binding; quantity: RBNS enrichment (R)
Target: RNA binding protein fox-1 homolog 2, RRM domain, GST-SBP tag (RBFOX2, Homo sapiens, UniProt O43251-10, residues 100-194)
Setting: natural RNA segment, single round, ends assumed
Constant ends, left off below: GGGAGUUCUACAGUCCGACGAUC … UGGAAUUCUCGGGUGCCAA
Target sequence (chain): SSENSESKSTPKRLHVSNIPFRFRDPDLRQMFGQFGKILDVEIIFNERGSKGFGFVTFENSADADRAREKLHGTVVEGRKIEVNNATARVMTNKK
CCAAACUAGAUACCGAAAGGGCUCCUCAUUUGUCUCUUUUGUCCCAUUGUGGGCAUAUGGUGGGCUCCUUGAGAGGAGGGAGUCUCAGCUGGGGCCUGGCUGCAGAGACC: 0.557
AGAAAAAUGCCUAAUAUACUAAAGUAAACCAAACGUUGUCACUUUUCUCUUGUUCUUGAAACAUUGCAACCAAAAAGGUCAGCACAAAGGCCUUCACCUACGUGAAGACC: 0.754
UGGGCGGGGUUCCAAGGCCUGCGAGCUGGGAAAGGACAGAUGAGGGGACCUCGUGCCUUCUUGCUGUCAUGCAAUGACCCCGCCUUAUGUUGCCGAAAUAAGCAACUCUU: 0.295
GGAUAUCUUUUCGCCUCAGACAGCUCUUCGAUUGCUCAUACAGAACAAUUCUGCCGGUGCUGAAGUACCAAGAAUGUUUUCAUUUGCAUUUUCCUGGUUAAGAAAUCUGU: 0.296
UCCACGAUAAGAAAAACAACCCCACCAAUCAGAUAGCGGAGCCUGUUAUUUGAAGCUGCAGAGCCACACCCUUGGCCUAACCCCUAGCAGACUGAGGCUCUCCCAUGCCU: 0.387
UGUGUCCGUGGAACCAGUCCUAGCCGCGUGUGACAGUCUUGCAUUCUGUUUGUCUCGUGGGGGGAGGUGGACAGUCCUGCGGAAAUGUGUCUUGUCUCCAUUUGGAUAAA: 1.73

Set 3 — method: protein-binding microarray; molecule type: double-stranded DNA, one strand shown; matrix: in vitro; concentration: not given; direction: higher = stronger binding; quantity: E-score
Target: Protein C-ets-1 (ETS1, Homo sapiens, UniProt P14921, residues 1-441, K379A, full length assumed)
Chain of UniProt P14921 (whole entry, unmodified, looked up): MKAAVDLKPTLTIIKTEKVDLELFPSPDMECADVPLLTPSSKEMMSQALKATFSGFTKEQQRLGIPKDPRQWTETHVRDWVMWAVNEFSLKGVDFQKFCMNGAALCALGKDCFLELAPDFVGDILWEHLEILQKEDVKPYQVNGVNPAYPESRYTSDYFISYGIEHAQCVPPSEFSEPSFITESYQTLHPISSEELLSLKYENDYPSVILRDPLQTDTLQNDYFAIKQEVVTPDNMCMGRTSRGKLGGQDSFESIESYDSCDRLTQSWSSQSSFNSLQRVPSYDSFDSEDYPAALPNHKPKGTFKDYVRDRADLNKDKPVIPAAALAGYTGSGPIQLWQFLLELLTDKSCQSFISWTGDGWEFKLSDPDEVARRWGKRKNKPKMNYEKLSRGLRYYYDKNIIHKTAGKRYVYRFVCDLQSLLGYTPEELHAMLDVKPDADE
Setting: k-mer, scored over probes, only values ≥0.25
ACAATACC: 0.319
ATCTCCGG: 0.279
CCGCGCGG: 0.256
CATATCCG: 0.264
AACCGGAG: 0.345

Mixed results
PhoQ, residues 284 288 289 292 302 303 AQGLTV  fold induction (PhoP, residues 12 14 15 18 19 LHHVQ (Escherichia coli, UniProt P23836); Sort-seq, measured: YFP reporter; E. coli; PhoQ-PhoP variant library, with: 10 µM Mg2+; baseline: high Mg2+ state, higher = stronger signaling): 21.4

A few entries again (set 3):
CCGCGCGG: 0.256
AACCGGAG: 0.345
ATCTCCGG: 0.279
